Measurements collected from several papers.
Compare with care: the assays were run in different laboratories. Several values in a cell are separate wells, animals, samples, runs or records. ± marks the error that the study gave.
Sequence of UniProt Q16539 (whole entry, looked up): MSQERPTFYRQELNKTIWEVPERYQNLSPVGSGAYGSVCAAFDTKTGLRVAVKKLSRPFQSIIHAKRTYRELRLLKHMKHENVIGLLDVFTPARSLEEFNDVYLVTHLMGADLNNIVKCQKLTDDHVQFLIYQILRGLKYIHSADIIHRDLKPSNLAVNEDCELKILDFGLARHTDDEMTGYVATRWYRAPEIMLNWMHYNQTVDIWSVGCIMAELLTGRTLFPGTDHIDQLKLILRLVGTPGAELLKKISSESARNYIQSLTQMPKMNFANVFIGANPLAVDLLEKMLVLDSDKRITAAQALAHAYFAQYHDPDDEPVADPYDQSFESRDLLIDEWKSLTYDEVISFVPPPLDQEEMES
Sequence of UniProt P14778 (whole entry, looked up): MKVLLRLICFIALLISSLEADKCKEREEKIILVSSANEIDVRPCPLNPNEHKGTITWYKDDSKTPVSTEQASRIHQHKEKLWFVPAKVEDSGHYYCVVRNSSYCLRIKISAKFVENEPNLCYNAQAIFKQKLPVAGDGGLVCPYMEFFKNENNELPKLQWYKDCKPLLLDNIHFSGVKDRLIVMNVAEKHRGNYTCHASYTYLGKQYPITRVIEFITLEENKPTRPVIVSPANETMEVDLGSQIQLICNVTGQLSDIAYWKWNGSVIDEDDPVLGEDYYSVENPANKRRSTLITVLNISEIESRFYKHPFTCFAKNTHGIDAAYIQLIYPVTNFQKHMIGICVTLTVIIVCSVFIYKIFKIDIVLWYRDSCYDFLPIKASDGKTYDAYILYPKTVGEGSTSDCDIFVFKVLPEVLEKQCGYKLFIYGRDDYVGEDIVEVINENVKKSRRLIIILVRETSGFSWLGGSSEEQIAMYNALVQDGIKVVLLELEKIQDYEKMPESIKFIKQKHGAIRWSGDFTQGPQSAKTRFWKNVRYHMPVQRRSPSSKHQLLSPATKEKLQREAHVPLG
Sequence of UniProt O15379 (whole entry, looked up): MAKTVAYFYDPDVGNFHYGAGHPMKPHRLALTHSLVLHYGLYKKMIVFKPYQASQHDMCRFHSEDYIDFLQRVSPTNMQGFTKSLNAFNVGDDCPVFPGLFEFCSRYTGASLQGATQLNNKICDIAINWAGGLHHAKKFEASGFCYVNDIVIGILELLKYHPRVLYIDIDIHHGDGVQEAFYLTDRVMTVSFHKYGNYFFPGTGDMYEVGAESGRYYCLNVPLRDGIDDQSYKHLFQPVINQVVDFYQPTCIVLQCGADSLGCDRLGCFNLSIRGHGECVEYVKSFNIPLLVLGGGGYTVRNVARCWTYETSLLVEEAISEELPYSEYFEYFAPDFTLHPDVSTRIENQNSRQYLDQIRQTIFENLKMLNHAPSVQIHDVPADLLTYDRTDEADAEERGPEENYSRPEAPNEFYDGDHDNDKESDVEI
Sequence of UniProt O75417 (whole entry, looked up): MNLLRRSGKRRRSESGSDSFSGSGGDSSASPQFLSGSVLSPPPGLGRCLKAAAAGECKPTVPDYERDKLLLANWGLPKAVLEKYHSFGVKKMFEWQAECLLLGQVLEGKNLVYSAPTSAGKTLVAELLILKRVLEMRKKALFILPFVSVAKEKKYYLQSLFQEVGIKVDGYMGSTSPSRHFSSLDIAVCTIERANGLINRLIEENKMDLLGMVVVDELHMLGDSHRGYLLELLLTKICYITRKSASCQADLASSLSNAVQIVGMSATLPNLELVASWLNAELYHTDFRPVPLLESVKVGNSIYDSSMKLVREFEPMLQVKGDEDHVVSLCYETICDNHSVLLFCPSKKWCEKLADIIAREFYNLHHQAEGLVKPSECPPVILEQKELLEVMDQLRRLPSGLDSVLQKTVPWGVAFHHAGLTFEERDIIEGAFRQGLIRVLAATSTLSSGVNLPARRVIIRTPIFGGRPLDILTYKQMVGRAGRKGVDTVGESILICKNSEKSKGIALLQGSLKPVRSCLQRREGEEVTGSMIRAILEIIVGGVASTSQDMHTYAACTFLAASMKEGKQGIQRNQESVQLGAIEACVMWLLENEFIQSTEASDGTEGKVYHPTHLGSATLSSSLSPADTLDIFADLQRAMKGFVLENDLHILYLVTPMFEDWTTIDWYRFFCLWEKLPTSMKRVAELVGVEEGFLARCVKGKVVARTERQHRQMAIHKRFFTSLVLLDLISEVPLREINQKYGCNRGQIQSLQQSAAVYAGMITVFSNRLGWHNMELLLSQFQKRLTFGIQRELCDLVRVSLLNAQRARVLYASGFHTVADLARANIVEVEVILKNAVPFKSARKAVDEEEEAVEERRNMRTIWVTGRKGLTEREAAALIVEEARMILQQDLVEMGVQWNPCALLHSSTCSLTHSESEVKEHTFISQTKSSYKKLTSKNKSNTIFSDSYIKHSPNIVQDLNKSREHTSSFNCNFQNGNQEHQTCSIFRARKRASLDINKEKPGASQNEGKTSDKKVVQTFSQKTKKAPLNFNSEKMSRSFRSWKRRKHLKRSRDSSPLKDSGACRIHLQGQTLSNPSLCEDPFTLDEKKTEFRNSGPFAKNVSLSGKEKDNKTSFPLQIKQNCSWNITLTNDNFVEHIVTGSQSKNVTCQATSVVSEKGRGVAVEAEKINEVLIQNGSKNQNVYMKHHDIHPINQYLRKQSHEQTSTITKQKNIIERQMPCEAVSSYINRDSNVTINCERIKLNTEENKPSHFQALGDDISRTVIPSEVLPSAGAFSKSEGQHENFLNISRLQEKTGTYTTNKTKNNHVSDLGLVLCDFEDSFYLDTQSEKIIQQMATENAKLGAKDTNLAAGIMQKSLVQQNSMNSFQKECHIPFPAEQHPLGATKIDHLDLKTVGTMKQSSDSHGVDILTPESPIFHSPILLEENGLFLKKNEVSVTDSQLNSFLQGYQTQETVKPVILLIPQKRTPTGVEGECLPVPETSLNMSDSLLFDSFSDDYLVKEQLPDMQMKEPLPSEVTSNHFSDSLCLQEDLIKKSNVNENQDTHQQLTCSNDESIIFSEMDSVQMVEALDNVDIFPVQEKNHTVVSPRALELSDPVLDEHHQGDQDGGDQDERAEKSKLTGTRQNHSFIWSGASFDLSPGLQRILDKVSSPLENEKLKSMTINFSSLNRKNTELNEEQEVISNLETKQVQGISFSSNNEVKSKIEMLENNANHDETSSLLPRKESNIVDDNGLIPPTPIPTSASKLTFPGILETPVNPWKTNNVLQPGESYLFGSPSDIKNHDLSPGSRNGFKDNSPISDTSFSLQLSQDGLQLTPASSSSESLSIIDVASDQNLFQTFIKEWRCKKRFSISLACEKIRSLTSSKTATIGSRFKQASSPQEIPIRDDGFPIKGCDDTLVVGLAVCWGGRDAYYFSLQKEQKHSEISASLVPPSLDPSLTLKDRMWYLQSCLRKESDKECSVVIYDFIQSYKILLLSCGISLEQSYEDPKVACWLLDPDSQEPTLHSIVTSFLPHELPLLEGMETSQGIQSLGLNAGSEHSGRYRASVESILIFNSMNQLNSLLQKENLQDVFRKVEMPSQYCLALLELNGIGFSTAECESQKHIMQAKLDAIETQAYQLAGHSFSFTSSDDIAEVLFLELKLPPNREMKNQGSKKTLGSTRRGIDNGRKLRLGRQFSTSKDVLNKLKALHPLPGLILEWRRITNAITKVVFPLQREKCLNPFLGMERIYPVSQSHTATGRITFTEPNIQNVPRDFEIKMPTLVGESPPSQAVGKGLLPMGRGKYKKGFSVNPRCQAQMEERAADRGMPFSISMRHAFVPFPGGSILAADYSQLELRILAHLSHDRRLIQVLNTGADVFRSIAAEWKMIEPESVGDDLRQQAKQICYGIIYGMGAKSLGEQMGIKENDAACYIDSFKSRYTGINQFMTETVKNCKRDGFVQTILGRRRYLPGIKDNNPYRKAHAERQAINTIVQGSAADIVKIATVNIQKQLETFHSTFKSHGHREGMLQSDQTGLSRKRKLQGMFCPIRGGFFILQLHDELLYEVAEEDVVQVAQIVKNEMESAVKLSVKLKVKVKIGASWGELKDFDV
Sequence of UniProt P29317 (whole entry, looked up): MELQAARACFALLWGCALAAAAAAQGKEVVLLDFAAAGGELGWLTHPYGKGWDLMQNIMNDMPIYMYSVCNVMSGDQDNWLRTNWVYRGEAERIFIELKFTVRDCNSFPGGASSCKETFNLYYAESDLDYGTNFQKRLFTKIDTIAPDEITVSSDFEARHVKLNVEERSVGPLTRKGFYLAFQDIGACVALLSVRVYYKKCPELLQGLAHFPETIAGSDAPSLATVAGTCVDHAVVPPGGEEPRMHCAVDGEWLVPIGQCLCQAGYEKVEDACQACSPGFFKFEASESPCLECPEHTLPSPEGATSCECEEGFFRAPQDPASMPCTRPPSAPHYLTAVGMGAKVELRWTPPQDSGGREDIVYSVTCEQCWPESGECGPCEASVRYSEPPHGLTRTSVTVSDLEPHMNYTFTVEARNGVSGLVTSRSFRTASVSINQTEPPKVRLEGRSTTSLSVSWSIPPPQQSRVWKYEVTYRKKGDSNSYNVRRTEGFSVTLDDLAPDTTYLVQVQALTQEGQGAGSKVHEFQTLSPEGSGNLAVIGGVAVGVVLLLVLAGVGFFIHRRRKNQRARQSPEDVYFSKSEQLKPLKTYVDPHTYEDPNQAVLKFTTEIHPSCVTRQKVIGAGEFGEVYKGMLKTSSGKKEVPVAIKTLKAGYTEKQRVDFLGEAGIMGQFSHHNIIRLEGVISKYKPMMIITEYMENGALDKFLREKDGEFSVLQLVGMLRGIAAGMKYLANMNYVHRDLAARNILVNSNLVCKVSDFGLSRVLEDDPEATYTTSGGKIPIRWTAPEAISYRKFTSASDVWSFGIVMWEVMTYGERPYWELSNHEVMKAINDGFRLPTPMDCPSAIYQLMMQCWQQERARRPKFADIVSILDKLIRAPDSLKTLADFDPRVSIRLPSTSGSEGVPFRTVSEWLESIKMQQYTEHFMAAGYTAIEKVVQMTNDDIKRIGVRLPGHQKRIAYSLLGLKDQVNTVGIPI

| Structure (SMILES) | target or system | assay | system | conditions | how to read | measurement | value |
| --- | --- | --- | --- | --- | --- | --- | --- |
| COC(=O)c1ccc2c(c1)nc(NC(=O)c1ccccc1)n2CCCc1ccccc1 | Histone deacetylase 3 (HDAC3, Homo sapiens, UniProt O15379) | enzyme activity, inhibitor |  | 10 µM |  | remaining activity | 83% |
| C[C@](C(=O)NC1CCOCC1)(c1cncnc1)N(C(=O)[C@H](F)Cl)c1ccc(OC(F)(F)Cl)cc1 | Cathepsin E (CTSE, Homo sapiens, UniProt P14091) | enzyme activity, inhibitor |  | 10 µM |  | remaining activity | 105% |
| Cc1ncsc1-c1ccc(C(C)NC(=O)C2CC(O)CN2C(=O)C(NC(=O)CCCCCCCCCCN2CCCC(Nc3ncc(Cl)c(Nc4ccccc4S(=O)(=O)C(C)C)n3)C2)C(C)(C)C)cc1 (stereo not drawn) | 22Rv1 | RNA-seq, measured: VPS18 mRNA |  | concentration not given | baseline: DMSO | log2 fold change | -1.04 |
| CNS(=O)(=O)Nc1nccc(Cc2c(C)c3ccc(Oc4ncccc4F)cc3oc2=O)c1F | NCI-H209 | cell viability |  | 7 days |  | IC50 | > 1 µM |
| CC(C)[C@@H]1NC(=O)[C@H](Cc2ccccc2)NC(=O)CSC[C@@H](C(N)=O)NC(=O)[C@H](CCC(=O)O)NC(=O)[C@H](CO)NC(=O)[C@H](Cc2c[nH]c3cccc(Cl)c23)NC(=O)[C@H](C2CCCCC2)NC(=O)[C@H](C(C)C)NC(=O)[C@H](Cc2ccc(O)cc2)NC(=O)[C@H](CC(=O)O)NC(=O)[C@H](Cc2c[nH]c3ccccc23)NC(=O)[C@H](Cc2ccc(N)nc2)NC(=O)[C@H](Cc2c[nH]c3ccc(Cl)cc23)NC(=O)[C@H](CCC(=O)O)NC1=O | Interleukin-1 receptor-like 2 (IL1RL2, Homo sapiens, UniProt Q9HB29) | reporter gene (SEAP), inhibitor, HEK-Blue IL-36R reporter | HEK-Blue IL-36R cells | 1.23 µM, 6 h, with: IL-36β 100 ng/mL |  | remaining activity | 91.9% |
| CN1CCCNC(=O)c2cccc(c2)C(=O)NCCCN(C)CCCNc2cccc3c2C(=O)c2cccc(c2C3=O)NCCC1 | SAS | RNA-Seq, measured: TRNAU1AP mRNA |  | 1 µM, 6 h | baseline: untreated cells | log2 fold change | -0.976 |
| CN1CCC[C@@H]1C(=O)N[C@@H](Cc1ccc(-c2ccccc2)cc1)B(O)O | 20S proteasome (Plasmodium falciparum, UniProt A0A5K1K7U1+Q8IJT1) | inhibitor, progress curve |  | 10 µM, 90 min | baseline: uninhibited control | remaining activity | 14% |
| COC(=O)[C@@]1(C)C=C(C(=O)Nc2cccc(C(=O)Nc3ccc(Nc4nccc(-c5cccnc5)n4)c(C)c3)c2)C(=O)CC1 | Mitogen-activated protein kinase 14 (MAPK14, Homo sapiens, UniProt Q16539) | enzyme activity, inhibitor |  | 0.5487 µM, unit not given | baseline: vehicle | remaining activity | 1.06 and 1.27 and 0.959 |
| CC(=O)N1c2ccc(-c3ccc(CNC(=O)c4cn5cc(-c6cnc(N)nc6)nc(N6CCOCC6)c5n4)cc3)cc2CC[C@@H]1C | DNA-dependent protein kinase catalytic subunit (PRKDC, Homo sapiens, UniProt P78527) | enzyme activity, inhibitor, radiometric |  | 10 µM |  | remaining activity | 13% |
| CN(Cc1cc(C2CC2)on1)C(=O)c1cccc(-c2ccc3c(c2)CCO3)c1 | Acetyl-CoA synthetase (Cryptococcus neoformans, UniProt J9VFT1) | enzyme activity, inhibitor, coupled pyrophosphate |  | 977 nM |  | remaining activity | 78.5% and 83.4% |
| COc1ccc(NC(=O)Nc2ccc3c(c2)C(=O)N(C(C)CO)CC(C)C(CN(C)Cc2ccc4c(c2)OCO4)O3)cc1 (stereo not drawn) | MLCK human | kinase activity |  | 0.03 µM | baseline: control | remaining activity | 102% |
| Cc1ccc(C)c(-c2ccc3nc(NC(=O)C4CCCCC4)nn3c2)c1 | phosphorylase kinase | enzyme activity |  | 10 µM |  | remaining activity | 50% |
| Cc1ccc(-c2c(/C=C(\C#N)C(=O)NC(C)C)n(CCCO)c3ncnc(N)c23)cc1 | Tyrosine-protein kinase ABL1 (ABL1, Homo sapiens, UniProt P00519, Q252H) | enzyme activity, inhibitor |  | 1 µM |  | remaining activity | 100% |
| Nc1ncc(-c2cc(-c3cnn(CC(F)(F)F)c3)ncc2F)nc1C(=O)NC1CNCC(F)C1 (stereo not drawn) | PIP5K1A | KINOMEscan |  | 1 µM | baseline: DMSO control | remaining binding | 100% |
| C=C(NC(=O)c1csc(-c2nc3c(cc2O)-c2nc(cs2)C(=O)NC(C(C)O)C(=O)NC(=C(C)OC)c2nc(cs2)C(=O)NC2c4nc(cs4)C(=O)NC(COC(=O)c4c5c6c(cccc6n4O)COC(=O)C(OC4CC(C)(O)C(N(C)C)C(C)O4)C2OC5)c2nc-3cs2)n1)C(N)=O (stereo not drawn) |  |  | cynomolgus monkey, both sexes, plasma | intravenous infusion, 9 mg/kg single dose |  | AUC(0-last) | 44900 ± 10600 ng·h/mL |
| C=CC(=O)Nc1cccc(Cn2ncc3cnc(Nc4cnn(CCOC)c4)nc32)c1 | ACVR2B human | binding, KINOMEscan |  | 100 nM | lower = stronger binding | percent of control | 87% |
| COC1CN([C@H]2CC[C@H]([C@@]3(C)Oc4c(Cl)cc(C(=O)NCc5c(SC)cc(C)[nH]c5=O)c(C)c4O3)CC2)C1 |  | RNA-seq, measured: SERPINI1 mouse homolog | mouse, HT-1376 xenograft, whole blood | dose not given | baseline: vehicle | log2 fold change | 0.548 |
| Cc1cnc2nc1Nc1cccc(c1)COC/C=C/COCc1cc(ccc1OCCN1CCOCC1)N2 | Epidermal growth factor receptor (EGFR, Homo sapiens, UniProt P00533, L858R/T790M) |  |  | concentration not given | baseline: untreated control | remaining activity | 35% |
| Cc1cccc(-c2ccc3nc(NC(=O)C4CCCO4)nn3c2)c1 (stereo not drawn) | phosphorylase kinase | enzyme activity |  | 10 µM |  | remaining activity | 72% |
| N#Cc1cnc2sc(C(=O)O)cc2c1N1CCc2[nH]nc(C(=O)N[C@@H](CC(=O)NCCOCCN3CCOCC3)c3cccc(Br)c3)c2C1 | Interleukin-1 receptor type 1 (IL1R1, Homo sapiens, UniProt P14778) | IL-8 release, antagonist | A-431 | 100000 µM, 18 h, with: IL-1β 5 ng/mL | baseline: untreated | remaining activity | 109% |
| CN1C[C@@H](c2c[nH]c3cc(Br)ccc23)NC[C@@H]1c1c[nH]c2cc(Br)ccc12 | Cyclin-dependent kinase 2, with cyclin A2 (CDK2, Homo sapiens, UniProt P24941) | enzyme activity, inhibitor |  | 10 µM |  | remaining activity | 97% |
| COc1ccccc1-c1ccncc1C(=O)Nc1nnc(OCc2ccc(Cl)cc2)s1 | DNA polymerase theta, helicase domain (POLQ, Homo sapiens, UniProt O75417) | ATPase activity, ADP-Glo |  | 0.002 µM, with: ATP 600 µM |  | remaining activity | 96% |
| COC(=O)[C@@]1(C(C)C)C=C(C(=O)Nc2cccc(C(=O)Nc3ccc(Nc4nccc(-c5cccnc5)n4)c(C)c3)c2)C(=O)CC1 | Mitogen-activated protein kinase 8 (MAPK8, Homo sapiens, UniProt P45983) | kinase activity, inhibitor |  | 4.938 µM, unit not given, with: 10 mM glutathione | baseline: no inhibitor | remaining activity | 0.244 |
| Cc1nn(-c2cccc(N)c2)c(=O)c2cnc(Nc3ccc(N4CCNCC4)cc3)nc12 | Ephrin type-A receptor 2 (EPHA2, Homo sapiens, UniProt P29317) | enzyme activity, inhibitor |  |  |  | IC50 | > 10 µM |

Excerpt of the above:
| Structure (SMILES) | target or system | assay | system | conditions | how to read | measurement | value |
| --- | --- | --- | --- | --- | --- | --- | --- |
| Cc1ccc(C)c(-c2ccc3nc(NC(=O)C4CCCCC4)nn3c2)c1 | phosphorylase kinase | enzyme activity |  | 10 µM |  | remaining activity | 50% |
| CN1CCCNC(=O)c2cccc(c2)C(=O)NCCCN(C)CCCNc2cccc3c2C(=O)c2cccc(c2C3=O)NCCC1 | SAS | RNA-Seq, measured: TRNAU1AP mRNA |  | 1 µM, 6 h | baseline: untreated cells | log2 fold change | -0.976 |
